Results pooled from the literature.
Parts stem from different laboratories: compare values within a part only. Several values in a cell are separate wells, animals, samples, runs or records.
UniProt Q9NQU5, sequence (whole entry, looked up): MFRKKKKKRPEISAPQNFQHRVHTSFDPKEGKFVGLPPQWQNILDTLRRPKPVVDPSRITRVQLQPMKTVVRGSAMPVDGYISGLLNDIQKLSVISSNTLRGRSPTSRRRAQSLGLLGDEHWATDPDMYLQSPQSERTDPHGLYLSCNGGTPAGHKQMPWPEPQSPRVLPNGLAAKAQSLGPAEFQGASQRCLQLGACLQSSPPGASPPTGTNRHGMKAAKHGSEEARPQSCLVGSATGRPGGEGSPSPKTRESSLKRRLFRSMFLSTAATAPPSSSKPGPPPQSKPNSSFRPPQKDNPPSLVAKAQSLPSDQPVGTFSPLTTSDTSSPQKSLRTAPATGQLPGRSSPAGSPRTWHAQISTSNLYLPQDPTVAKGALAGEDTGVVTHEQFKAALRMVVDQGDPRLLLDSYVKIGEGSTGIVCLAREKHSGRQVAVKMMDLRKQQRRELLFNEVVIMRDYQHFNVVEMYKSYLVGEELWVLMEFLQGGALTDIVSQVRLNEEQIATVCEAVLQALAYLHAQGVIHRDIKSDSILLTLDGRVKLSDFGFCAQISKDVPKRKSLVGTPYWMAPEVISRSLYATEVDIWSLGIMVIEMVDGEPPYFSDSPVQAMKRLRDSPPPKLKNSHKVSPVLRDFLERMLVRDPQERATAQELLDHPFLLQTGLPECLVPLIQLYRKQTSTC
UniProt Q13153, sequence (whole entry, looked up): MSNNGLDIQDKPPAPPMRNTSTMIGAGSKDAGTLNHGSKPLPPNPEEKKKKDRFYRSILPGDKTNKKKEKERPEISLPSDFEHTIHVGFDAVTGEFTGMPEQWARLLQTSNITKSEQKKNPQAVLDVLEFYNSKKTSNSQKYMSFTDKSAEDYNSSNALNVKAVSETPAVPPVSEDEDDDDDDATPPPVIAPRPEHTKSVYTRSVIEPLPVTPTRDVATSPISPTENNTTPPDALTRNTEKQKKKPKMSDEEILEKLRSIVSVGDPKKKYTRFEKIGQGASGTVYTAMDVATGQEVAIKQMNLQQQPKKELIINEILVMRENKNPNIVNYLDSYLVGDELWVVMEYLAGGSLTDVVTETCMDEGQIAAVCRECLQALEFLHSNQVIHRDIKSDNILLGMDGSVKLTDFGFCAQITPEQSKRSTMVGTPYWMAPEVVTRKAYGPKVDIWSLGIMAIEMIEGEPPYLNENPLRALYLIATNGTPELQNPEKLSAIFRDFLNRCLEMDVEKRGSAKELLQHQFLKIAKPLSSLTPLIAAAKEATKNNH
UniProt Q14012, sequence (whole entry, looked up): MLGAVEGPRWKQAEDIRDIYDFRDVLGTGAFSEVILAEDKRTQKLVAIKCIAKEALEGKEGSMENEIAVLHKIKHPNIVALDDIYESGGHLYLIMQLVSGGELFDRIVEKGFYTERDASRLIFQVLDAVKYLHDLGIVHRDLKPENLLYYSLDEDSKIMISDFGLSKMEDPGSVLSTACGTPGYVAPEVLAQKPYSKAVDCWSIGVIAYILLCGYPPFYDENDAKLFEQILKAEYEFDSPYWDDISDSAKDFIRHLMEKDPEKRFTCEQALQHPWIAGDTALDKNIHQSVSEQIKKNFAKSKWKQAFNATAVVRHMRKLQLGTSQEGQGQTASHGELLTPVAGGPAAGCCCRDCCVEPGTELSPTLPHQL
UniProt P49674, sequence (whole entry, looked up): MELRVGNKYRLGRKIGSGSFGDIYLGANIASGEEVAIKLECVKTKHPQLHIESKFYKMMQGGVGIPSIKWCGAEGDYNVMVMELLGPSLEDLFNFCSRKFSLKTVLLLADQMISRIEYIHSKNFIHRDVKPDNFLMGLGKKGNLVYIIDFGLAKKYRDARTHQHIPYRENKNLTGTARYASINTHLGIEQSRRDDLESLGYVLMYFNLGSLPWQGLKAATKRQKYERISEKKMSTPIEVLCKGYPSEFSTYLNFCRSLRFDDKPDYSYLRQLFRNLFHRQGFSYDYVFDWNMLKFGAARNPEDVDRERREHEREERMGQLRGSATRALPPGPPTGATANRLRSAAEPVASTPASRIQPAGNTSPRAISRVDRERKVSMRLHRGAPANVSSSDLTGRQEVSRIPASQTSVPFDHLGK
UniProt P23458, sequence (whole entry, looked up): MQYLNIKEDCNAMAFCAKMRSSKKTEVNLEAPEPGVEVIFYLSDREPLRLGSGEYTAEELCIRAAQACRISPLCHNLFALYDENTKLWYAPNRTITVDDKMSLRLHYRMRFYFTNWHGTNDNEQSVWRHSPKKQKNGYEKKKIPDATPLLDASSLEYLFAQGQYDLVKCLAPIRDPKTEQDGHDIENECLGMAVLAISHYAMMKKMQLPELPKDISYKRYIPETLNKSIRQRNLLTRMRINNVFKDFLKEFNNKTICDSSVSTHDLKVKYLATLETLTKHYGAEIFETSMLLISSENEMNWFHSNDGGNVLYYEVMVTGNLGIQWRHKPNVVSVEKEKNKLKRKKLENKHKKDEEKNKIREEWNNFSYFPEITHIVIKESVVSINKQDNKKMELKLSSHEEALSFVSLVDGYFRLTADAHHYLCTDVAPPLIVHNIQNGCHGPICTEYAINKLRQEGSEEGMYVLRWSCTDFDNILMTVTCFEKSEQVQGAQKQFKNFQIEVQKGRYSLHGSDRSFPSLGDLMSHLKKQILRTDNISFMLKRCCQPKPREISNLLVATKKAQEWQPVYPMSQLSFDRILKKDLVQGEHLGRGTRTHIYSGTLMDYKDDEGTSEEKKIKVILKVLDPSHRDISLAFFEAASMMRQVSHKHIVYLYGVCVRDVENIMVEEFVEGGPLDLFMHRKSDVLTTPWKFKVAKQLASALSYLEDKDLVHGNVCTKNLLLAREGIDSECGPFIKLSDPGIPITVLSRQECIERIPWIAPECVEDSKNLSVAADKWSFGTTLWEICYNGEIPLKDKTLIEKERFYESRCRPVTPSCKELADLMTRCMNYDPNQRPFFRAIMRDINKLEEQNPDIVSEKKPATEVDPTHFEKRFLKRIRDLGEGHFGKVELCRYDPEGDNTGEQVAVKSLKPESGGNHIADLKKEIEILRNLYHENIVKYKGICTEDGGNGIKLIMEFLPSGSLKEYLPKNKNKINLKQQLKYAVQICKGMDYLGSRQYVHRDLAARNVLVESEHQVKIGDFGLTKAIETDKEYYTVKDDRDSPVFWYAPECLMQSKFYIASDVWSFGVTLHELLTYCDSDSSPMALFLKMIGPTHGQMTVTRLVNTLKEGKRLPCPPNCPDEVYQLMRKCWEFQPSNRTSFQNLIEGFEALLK
UniProt Q9H0K1, sequence (whole entry, looked up): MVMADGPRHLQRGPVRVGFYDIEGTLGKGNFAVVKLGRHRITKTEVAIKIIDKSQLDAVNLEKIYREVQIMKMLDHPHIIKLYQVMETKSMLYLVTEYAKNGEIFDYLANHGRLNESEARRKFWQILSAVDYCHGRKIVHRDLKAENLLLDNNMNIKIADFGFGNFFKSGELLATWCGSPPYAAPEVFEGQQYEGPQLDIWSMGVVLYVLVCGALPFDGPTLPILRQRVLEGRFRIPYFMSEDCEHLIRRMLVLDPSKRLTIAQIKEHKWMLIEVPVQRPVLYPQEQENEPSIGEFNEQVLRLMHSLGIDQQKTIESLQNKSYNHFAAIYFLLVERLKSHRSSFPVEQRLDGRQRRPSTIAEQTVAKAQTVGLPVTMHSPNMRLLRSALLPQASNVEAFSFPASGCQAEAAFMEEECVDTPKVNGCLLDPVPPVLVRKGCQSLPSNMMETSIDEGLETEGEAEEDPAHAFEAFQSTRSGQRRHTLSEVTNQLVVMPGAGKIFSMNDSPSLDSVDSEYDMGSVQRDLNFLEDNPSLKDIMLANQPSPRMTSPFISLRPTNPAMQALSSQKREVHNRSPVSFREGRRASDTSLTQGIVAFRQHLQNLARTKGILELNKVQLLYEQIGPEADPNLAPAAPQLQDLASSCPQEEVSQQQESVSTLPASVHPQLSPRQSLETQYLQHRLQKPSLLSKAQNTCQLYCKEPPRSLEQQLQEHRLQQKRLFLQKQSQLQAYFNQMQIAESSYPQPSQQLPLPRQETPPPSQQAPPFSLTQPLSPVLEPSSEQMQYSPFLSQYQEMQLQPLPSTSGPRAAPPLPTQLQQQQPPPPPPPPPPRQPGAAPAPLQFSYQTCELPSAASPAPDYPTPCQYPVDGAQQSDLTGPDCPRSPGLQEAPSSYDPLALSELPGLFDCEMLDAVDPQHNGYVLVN
UniProt Q9HBY8, sequence (whole entry, looked up): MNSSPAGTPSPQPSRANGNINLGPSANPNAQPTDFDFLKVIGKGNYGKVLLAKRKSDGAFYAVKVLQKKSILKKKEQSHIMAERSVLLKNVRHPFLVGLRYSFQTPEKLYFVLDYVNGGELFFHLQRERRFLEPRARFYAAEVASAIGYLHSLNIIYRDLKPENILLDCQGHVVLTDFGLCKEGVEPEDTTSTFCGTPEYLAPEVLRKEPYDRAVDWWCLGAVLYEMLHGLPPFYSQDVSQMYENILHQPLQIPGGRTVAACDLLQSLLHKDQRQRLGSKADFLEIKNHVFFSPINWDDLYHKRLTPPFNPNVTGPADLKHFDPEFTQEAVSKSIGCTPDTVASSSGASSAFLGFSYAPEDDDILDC

Set 1 — cell line: mouse MPNST tumor cells; technique: high-content nuclear imaging; refers to: cell number; concentration: 10 µM; time: 12 h; setting: mean of 2 replicates; relative to: plate mean; direction: higher = more cells; endpoint: nuclei count
CC(C)NCC(O)c1ccc2ccccc2c1 (stereo not shown): 2.92 z-score
CSc1ccc2c(c1)C(N1CCN(C)CC1)Cc1ccccc1S2 (stereo not shown): -5.74 z-score
COC(=O)N/N=C/c1c[n+]([O-])c2ccccc2[n+]1[O-]: 1.72 z-score
C=CCn1c(=O)n([C@@H]2O[C@H](CO)[C@@H](O)[C@H]2O)c2nc(N)[nH]c(=O)c21: -0.34 z-score
NC[C@@H]1O[C@H](O[C@H]2[C@@H](O)[C@H](O[C@@H]3[C@@H](O)[C@H](N)C[C@H](N)[C@H]3O[C@H]3O[C@H](CO)[C@@H](O)[C@H](O)[C@H]3N)O[C@@H]2CO)[C@H](N)[C@@H](O)[C@@H]1O: -0.806 z-score and 0.308 z-score
Oc1cc2c(c(Cl)c1O)CCNCC2c1ccccc1 (stereo not shown): 0.937 z-score
Clc1ccc(CCC(Cn2ccnc2)Sc2c(Cl)cccc2Cl)cc1 (stereo not shown): -0.227 z-score

Set 2 — effect on: ligand displacement; concentration: 10 µM; endpoint: inhibition
Target: Alpha-1B adrenergic receptor (ADRA1B, Homo sapiens, UniProt P35368)
UniProt P35368, sequence (whole entry, looked up): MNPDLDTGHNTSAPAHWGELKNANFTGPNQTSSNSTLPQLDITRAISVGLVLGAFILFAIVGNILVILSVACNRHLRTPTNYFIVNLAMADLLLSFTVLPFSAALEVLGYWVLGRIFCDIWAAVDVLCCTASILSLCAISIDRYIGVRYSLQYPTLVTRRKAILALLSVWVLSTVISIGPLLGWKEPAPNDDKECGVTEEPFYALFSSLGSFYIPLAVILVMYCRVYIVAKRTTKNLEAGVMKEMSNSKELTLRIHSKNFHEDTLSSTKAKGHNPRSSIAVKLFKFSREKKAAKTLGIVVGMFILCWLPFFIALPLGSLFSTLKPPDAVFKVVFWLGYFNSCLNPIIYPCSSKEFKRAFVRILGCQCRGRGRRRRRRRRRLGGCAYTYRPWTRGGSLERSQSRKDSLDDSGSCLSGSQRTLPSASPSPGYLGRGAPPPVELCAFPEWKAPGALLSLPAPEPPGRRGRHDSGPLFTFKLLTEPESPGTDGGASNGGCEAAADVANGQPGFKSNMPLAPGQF
Nc1cnc(N2CCc3cc(S(=O)(=O)Nc4c(F)cc(Cl)cc4F)cc(N4CCCC4=O)c32)nc1: 4.68%
Cc1c(NC(=O)c2cc(C(N)=O)nc3cc(F)ccc23)c(C(F)(F)F)nn1Cc1ccc(C#N)cc1: -8.82%
O=C(Nc1ccc(Oc2ccc(F)cc2)cc1)N1CCc2ncccc2[C@H]1c1ccc(F)cc1: 12.2%
NS(=O)(=O)c1cc(NC(=O)Cc2ccccc2)ccc1Oc1cccc(Cl)c1: -0.38%
COc1cc(-c2cn(C3CCc4c(F)cccc4N(CC(F)(F)F)C3=O)nn2)ccc1-n1cnc(C)c1 (stereo not shown): 19.9%
CC(=O)N1CCC(c2ccc(C(=O)NC3=NCCN3)cc2C(F)(F)F)CC1: -0.595%
COc1cc(N[C@@H]2CCCC[C@]2(O)C(F)(F)F)ccc1F: 0.41%
CC1CCN(c2ccnc(NCc3cn(C)cn3)n2)CC1: -5.62%
CCC(F)(F)c1cc(N2CCC(S(C)(=O)=O)CC2)nc2sc(C(N)=O)c(N)c12: -0.02%
N#CC1(c2ccccn2)CCN(Cc2cc(C(=O)N3CCCC3)c(=O)n3ccccc23)CC1: 1.36%
CS(=O)(=O)N1CCCC(NC(=O)[C@H](CCC2CCCCC2)NC(=O)c2ccc(CNC(=O)c3cnc4ccccn34)cc2)C1 (stereo partly shown): -15%
O=S(=O)(NC1CCC(c2cc(F)ccc2F)(S(=O)(=O)c2ccc(Cl)cc2)CC1)C(F)(F)F (stereo not shown): -5.22%

Set 3 — host: human; sample: microsomes or S9; concentration: 2 µM; time: 0.5 h; endpoint: remaining compound
Cc1cc(C)n(NC(=O)c2nn(C)cc2Br)c(=O)c1: 33%
O=c1cc(-c2ccccc2)[nH]c2nc(CCc3ccccc3)nn12: 88.5%
CCn1c(=O)n(CC)c2cc(NC(=O)CCN3Cc4ccccc4C3=O)ccc21: 58.1%
COc1ccc(NC(=O)COCc2ccccc2)cc1: 0.119%
O=C(CN1CCCC1Cn1cccn1)Nc1ccccc1-n1ccnc1 (stereo not shown): 71%
O=C1CSC(Nc2cccc(C(F)(F)F)c2)=N1: 13.6%

Set 4 — effect on: enzyme activity; mode: inhibitor; concentration: 0.5 µM; relative to: control; endpoint: remaining activity
Structure (SMILES): N#Cc1cnc2cnc(NCc3cccnc3)cc2c1Nc1ccc(F)c(Cl)c1
Cyclin-dependent kinase 2, with cyclin E (CDK2, Homo sapiens, UniProt P24941): 94.1%
Serine/threonine-protein kinase Sgk2 (SGK2, Homo sapiens, UniProt Q9HBY8): 98.5%
Tyrosine-protein kinase JAK1 (JAK1, Homo sapiens, UniProt P23458): 93.6%
Ephrin type-A receptor 2 (EPHA2, Homo sapiens, UniProt P29317): 102%
Serine/threonine-protein kinase PAK 6 (PAK6, Homo sapiens, UniProt Q9NQU5): 104%
Calcium/calmodulin-dependent protein kinase type 1 (CAMK1, Homo sapiens, UniProt Q14012): 99.1%
Ribosomal protein S6 kinase alpha-3 (RPS6KA3, Homo sapiens, UniProt P51812): 99.1%
Dual specificity protein kinase CLK2 (CLK2, Homo sapiens, UniProt P49760): 79.9%
Calcium/calmodulin-dependent protein kinase kinase 1 (CAMKK1, Homo sapiens, UniProt Q8N5S9): 105%
Insulin-like growth factor 1 receptor (IGF1R, Homo sapiens, UniProt P08069): 93.8%
Vascular endothelial growth factor receptor 1 (FLT1, Homo sapiens, UniProt P17948): 88%
Protein kinase C zeta type (PRKCZ, Homo sapiens, UniProt Q05513): 93.9%
Ephrin type-A receptor 6 (EPHA6, Homo sapiens, UniProt Q9UF33): 76.2%
Dual specificity protein kinase CLK1 (CLK1, Homo sapiens, UniProt P49759): 91%
Muscle, skeletal receptor tyrosine-protein kinase (MUSK, Homo sapiens, UniProt O15146): 55.6%
Mitogen-activated protein kinase kinase kinase 20 (MAP3K20, Homo sapiens, UniProt Q9NYL2): 106%
Serine/threonine-protein kinase SIK2 (SIK2, Homo sapiens, UniProt Q9H0K1): 97.6%
Tyrosine-protein kinase Tec (TEC, Homo sapiens, UniProt P42680): 118%
Protein kinase C theta type (PRKCQ, Homo sapiens, UniProt Q04759): 113%
Casein kinase I isoform delta (CSNK1D, Homo sapiens, UniProt P48730): 88.4%
Casein kinase I isoform epsilon (CSNK1E, Homo sapiens, UniProt P49674): 81.8%
SRSF protein kinase 1 (SRPK1, Homo sapiens, UniProt Q96SB4): 102%
Serine/threonine-protein kinase PAK 1 (PAK1, Homo sapiens, UniProt Q13153): 95.7%
Tyrosine-protein kinase receptor TYRO3 (TYRO3, Homo sapiens, UniProt Q06418): 98%

Excerpt of the above (set 3):
O=C(CN1CCCC1Cn1cccn1)Nc1ccccc1-n1ccnc1 (stereo not shown): 71%
O=C1CSC(Nc2cccc(C(F)(F)F)c2)=N1: 13.6%
COc1ccc(NC(=O)COCc2ccccc2)cc1: 0.119%
CCn1c(=O)n(CC)c2cc(NC(=O)CCN3Cc4ccccc4C3=O)ccc21: 58.1%
Cc1cc(C)n(NC(=O)c2nn(C)cc2Br)c(=O)c1: 33%
